Results from different studies.
± gives the spread as reported.
PTPN3: Tyrosine-protein phosphatase non-receptor type 3 (PTPN3, Homo sapiens, UniProt P26045)
OPRL1: Nociceptin receptor (OPRL1, Homo sapiens, UniProt P41146)
ache: Acetylcholinesterase (ache, Electrophorus electricus, UniProt O42275)
Secreted effector protein C403A/D356A: Secreted effector protein (Yersinia pestis, UniProt O68720, C403A/D356A)

Chains of the proteins cited; added tags and fusions are not shown. A line that says so, or that is headed by a name, gives the form on record, which may keep a tag or linker. Residues count along the entry.
UniProt P26045, 646-901 limits assumed: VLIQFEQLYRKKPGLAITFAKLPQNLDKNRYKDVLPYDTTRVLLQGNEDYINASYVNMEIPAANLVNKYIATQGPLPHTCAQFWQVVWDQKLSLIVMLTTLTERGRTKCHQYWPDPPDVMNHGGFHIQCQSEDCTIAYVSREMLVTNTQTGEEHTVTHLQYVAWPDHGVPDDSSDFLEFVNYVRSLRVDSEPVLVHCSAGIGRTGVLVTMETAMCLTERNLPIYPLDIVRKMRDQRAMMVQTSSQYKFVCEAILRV
UniProt P41146, whole entry: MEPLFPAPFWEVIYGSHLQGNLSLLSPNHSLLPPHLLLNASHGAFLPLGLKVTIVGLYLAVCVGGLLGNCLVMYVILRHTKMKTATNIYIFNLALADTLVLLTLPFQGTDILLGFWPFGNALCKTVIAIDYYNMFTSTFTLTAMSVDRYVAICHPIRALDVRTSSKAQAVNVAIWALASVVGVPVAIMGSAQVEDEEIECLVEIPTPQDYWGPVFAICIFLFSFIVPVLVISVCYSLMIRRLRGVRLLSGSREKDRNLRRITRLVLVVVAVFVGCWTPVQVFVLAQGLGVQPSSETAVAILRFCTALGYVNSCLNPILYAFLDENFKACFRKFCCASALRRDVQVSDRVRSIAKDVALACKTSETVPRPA
UniProt O42275, whole entry, looked up: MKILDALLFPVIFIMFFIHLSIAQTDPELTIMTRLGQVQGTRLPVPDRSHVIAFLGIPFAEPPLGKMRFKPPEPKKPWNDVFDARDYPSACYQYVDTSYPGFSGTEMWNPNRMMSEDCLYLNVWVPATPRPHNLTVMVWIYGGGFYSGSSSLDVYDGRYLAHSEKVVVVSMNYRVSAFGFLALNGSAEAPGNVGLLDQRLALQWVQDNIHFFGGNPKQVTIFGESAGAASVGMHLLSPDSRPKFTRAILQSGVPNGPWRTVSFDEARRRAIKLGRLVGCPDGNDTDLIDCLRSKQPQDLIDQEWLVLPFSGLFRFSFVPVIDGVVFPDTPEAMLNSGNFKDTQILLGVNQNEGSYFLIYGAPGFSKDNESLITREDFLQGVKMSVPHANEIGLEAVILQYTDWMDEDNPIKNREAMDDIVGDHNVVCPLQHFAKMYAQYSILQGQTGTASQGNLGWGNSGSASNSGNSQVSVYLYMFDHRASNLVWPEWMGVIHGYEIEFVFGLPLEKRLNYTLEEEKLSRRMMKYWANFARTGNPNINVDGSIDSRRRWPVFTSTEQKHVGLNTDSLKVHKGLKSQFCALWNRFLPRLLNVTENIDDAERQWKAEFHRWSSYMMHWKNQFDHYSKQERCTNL
UniProt P15390, whole entry: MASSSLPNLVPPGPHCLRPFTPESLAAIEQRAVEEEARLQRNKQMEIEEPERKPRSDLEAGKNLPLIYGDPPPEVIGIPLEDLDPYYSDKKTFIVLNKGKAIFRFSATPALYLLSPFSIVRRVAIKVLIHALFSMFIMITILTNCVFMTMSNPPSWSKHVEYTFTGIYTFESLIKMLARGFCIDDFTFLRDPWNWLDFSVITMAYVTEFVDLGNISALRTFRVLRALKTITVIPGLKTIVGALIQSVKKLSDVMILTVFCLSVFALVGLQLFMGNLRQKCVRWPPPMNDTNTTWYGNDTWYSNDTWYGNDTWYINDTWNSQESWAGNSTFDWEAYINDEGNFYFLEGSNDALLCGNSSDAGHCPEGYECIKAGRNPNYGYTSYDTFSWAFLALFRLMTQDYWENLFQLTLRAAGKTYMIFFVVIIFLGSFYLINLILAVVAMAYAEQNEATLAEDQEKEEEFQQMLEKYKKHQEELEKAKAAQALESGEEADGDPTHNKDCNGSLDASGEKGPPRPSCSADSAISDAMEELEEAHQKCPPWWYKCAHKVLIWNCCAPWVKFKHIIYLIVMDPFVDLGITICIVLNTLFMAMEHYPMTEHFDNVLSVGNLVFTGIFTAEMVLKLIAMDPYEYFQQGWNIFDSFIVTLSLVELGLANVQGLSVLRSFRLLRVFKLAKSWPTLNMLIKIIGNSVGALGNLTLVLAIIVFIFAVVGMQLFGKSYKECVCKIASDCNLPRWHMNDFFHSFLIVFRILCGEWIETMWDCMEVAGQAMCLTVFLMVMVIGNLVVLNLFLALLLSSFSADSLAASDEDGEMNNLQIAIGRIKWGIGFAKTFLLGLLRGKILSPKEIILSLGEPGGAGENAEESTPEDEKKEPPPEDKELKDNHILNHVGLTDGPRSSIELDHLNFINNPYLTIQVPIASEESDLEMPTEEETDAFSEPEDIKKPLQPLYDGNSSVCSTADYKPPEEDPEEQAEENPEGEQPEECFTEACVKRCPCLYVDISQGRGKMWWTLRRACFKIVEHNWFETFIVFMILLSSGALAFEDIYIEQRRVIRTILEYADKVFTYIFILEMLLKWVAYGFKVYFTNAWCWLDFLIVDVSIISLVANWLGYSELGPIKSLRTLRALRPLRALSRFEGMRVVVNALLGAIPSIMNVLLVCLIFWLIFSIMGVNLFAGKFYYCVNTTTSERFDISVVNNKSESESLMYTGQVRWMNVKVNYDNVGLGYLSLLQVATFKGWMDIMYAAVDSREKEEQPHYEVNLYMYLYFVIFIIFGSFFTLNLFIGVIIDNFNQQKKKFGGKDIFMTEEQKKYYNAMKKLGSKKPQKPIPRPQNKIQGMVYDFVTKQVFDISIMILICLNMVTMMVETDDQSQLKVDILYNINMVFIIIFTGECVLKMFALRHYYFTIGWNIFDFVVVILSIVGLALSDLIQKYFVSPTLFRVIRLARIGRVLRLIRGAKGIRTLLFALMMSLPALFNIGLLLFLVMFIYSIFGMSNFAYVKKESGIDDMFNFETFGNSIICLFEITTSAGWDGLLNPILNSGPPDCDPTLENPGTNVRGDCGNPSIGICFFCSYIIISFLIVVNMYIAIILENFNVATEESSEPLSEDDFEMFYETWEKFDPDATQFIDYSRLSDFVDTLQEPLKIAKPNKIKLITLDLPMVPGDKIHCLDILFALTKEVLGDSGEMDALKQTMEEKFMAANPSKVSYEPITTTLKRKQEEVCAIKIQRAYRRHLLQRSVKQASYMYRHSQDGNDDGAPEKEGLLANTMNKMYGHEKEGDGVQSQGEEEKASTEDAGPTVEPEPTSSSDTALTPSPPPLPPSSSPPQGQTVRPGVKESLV
UniProt P08510, 1-655 with tags or gaps DEL6-46: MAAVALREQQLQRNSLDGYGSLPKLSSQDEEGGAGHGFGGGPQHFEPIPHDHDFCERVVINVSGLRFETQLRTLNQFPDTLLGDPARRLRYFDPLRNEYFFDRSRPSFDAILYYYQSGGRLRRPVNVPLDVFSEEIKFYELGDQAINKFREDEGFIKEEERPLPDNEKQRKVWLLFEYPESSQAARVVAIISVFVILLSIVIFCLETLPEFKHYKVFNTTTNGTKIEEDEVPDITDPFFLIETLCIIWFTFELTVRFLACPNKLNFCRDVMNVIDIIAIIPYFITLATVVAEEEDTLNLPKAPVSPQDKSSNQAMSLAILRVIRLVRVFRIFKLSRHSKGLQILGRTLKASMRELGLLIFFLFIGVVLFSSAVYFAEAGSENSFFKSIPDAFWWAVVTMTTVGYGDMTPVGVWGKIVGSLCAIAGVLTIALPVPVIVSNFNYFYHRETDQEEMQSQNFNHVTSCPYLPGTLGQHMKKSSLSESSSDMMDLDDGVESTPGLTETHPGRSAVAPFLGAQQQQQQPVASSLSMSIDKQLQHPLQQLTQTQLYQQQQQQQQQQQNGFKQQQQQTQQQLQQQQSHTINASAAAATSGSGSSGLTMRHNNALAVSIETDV
UniProt P30926, whole entry, looked up: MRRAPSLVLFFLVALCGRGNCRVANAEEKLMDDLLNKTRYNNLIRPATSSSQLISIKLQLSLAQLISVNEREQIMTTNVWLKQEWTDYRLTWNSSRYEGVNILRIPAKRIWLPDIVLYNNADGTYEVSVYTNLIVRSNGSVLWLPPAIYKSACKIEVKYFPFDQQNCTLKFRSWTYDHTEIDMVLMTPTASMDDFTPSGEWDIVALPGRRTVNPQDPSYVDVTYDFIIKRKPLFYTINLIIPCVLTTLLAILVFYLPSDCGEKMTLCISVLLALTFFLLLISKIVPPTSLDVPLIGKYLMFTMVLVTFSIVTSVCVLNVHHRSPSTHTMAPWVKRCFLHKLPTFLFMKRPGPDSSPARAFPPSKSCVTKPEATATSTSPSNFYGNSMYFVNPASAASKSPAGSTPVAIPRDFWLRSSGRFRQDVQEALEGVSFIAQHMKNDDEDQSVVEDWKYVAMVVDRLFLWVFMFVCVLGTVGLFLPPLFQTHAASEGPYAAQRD
UniProt P32297, whole entry, looked up: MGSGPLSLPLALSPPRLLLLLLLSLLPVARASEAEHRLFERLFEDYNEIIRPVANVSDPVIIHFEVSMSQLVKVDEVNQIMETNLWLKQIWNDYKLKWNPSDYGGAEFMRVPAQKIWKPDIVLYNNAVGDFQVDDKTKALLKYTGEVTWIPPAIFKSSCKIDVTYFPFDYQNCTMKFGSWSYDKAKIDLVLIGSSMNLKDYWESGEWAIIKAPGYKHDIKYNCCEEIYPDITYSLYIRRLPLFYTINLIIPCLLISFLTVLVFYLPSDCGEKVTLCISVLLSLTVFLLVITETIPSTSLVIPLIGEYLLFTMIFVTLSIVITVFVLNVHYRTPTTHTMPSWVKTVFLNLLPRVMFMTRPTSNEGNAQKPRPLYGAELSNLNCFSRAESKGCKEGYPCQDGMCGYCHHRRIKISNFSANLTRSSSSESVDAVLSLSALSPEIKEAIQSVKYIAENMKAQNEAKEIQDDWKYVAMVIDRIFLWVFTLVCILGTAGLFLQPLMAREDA
UniProt P37136, 32-614 limits assumed: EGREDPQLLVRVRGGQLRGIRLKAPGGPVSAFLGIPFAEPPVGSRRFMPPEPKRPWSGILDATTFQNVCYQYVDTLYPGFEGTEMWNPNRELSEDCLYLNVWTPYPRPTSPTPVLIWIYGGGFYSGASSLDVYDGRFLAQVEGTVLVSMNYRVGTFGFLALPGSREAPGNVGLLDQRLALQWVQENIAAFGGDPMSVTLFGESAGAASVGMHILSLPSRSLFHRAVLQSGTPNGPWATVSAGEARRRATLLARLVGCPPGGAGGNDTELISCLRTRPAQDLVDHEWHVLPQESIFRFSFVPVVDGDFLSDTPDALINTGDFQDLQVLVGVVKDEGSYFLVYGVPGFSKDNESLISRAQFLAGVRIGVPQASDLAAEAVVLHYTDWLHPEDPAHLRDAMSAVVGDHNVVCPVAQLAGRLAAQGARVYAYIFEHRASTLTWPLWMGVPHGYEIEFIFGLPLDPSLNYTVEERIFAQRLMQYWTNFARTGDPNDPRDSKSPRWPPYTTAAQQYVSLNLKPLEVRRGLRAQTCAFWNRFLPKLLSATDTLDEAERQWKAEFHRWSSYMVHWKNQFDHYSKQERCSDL
UniProt P04757, 26-499 limits assumed: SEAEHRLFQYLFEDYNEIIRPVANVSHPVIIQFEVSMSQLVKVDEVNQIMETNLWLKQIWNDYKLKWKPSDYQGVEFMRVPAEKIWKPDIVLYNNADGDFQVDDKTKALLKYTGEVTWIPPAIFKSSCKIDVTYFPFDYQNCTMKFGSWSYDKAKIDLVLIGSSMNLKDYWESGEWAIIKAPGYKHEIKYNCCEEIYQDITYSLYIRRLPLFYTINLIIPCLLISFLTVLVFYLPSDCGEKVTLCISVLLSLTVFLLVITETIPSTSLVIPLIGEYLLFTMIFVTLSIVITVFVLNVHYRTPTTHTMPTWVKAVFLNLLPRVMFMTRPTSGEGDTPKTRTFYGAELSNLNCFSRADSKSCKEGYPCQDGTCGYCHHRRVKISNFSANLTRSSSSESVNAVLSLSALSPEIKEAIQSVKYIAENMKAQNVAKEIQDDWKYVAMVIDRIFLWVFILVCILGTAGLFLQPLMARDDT
UniProt P12390, 25-500 limits assumed: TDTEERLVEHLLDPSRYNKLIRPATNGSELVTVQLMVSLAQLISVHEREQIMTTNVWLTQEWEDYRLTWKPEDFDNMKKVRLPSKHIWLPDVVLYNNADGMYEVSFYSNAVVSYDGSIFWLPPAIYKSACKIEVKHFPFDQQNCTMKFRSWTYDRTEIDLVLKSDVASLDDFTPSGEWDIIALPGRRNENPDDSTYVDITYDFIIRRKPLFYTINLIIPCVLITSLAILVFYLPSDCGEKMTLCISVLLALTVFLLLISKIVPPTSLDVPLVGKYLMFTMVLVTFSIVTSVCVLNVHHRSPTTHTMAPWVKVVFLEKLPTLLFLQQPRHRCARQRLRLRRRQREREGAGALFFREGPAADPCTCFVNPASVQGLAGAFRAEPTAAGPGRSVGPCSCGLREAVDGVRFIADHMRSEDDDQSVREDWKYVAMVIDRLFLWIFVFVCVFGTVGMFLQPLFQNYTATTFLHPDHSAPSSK
UniProt P59768, 2-68 partner limits assumed: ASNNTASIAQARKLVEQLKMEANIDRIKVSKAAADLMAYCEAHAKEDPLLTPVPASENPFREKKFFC

| SMILES | target or system | assay | system | conditions | how to read | endpoint | result |
| --- | --- | --- | --- | --- | --- | --- | --- |
| N#Cc1cn([C@@H]2O[C@H](CSCC[C@H](N)C(=O)O)[C@@H](O)[C@H]2O)c2ncnc(N)c12 | Replicase polyprotein 1ab, nsp16 with nsp10 (rep, Middle East respiratory syndrome-related coronavirus, UniProt K9N7C7) | methyltransferase activity, inhibitor, radiometric nsp10-nsp16 | – | – | – | Hill slope | -0.9 |
| C[C@H](N)C(=O)N[C@H]1CSSC[C@@H]2NC(=O)[C@H](CCCNC(=N)N)NC(=O)[C@H](CO)NC(=O)[C@H](Cc3c[nH]cn3)NC(=O)[C@H](CC(=O)O)NC(=O)[C@H](CCCNC(=N)N)NC(=O)[C@H](C)NC(=O)[C@H](Cc3c[nH]c4ccccc34)NC(=O)[C@H](CCCCN)NC(=O)[C@H](CO)NC(=O)[C@H](CO)NC(=O)[C@H](CSSC[C@@H](C(N)=O)NC2=O)NC(=O)[C@H](CC(N)=O)NC1=O | Scn4a (Rattus norvegicus, UniProt P15390) | sodium current, blocker, two-electrode voltage clamp | Xenopus oocytes | 1 µM, 20 min, steady state | – | block | 85 ± 2% |
| O=C(Nc1ccc2c(c1)C(=O)N(O)C(=O)C2C(=O)NCc1ccc(F)cc1)c1ccccc1 (centres unmarked) | Nucleoprotein, exonuclease domain (N, Lymphocytic choriomeningitis virus, UniProt P09992) | exonuclease activity, inhibitor | – | 20 µM, 30 min | – | inhibition | 95% |
| CC[C@H](C)[C@H](NC(=O)[C@H](C)NC(=O)[C@H](CCC(=O)O)NC(=O)[C@H](CCC(=O)O)NC(=O)[C@H](CC(C)C)NC(=O)[C@H](CCCCN)NC(=O)[C@H](CCCCN)NC(=O)[C@H](CCSC)NC(=O)[C@H](CCC(=O)O)NC(=O)[C@H](Cc1ccc(O)cc1)NC(=O)[C@H](CCC(=O)O)NC(=O)[C@H](CC(C)C)NC(=O)[C@H](CC(=O)O)NC(=O)[C@H](CC(C)C)NC(=O)[C@H](Cc1ccccc1)NC(=O)[C@H](Cc1ccccc1)NC(=O)[C@@H](NC(=O)[C@H](CC(N)=O)NC(=O)[C@@H](NC(=O)[C@H](CCC(N)=O)NC(=O)[C@H](CC(=O)O)NC(=O)[C@H](CC(C)C)NC(=O)[C@@H](N)CO)[C@@H](C)CC)C(C)C)C(=O)N[C@@H](CCCCN)C(=O)N[C@@H](CCCCN)C(=O)N[C@@H](CC(C)C)C(=O)N[C@@H](CCC(=O)O)C(=O)N[C@@H](CCC(=O)O)C(=O)N[C@H](C(=O)N[C@@H](Cc1ccc(O)cc1)C(=O)N[C@H](C(=O)N[C@@H](CC(=O)O)C(=O)N[C@@H](CC(C)C)C(=O)N[C@@H](CCCCN)C(=O)N[C@@H](CCC(=O)O)C(=O)N[C@@H](CC(C)C)C(=O)O)[C@@H](C)CC)[C@@H](C)O | SARS-CoV-2 XBB.1.5 pseudovirus | pseudovirus infection, inhibitor, luciferase | Caco-2 | 24 h, dual mutations | – | IC50 | 0.121 µM |
| CC(=O)N[C@@H](Cc1c[nH]cn1)C(=O)N[C@@H](CC(=O)O)C(=O)NCC(=O)N[C@@H](CC(C)C)C(=O)N[C@@H](Cc1cc(=O)oc2cc(OP(=O)(O)O)ccc12)C(=O)N[C@@H](CCC(N)=O)C(=O)NCC(=O)N[C@@H](CC(C)C)C(=O)N[C@@H](CO)C(=O)N[C@H](C(=O)N[C@@H](C)C(=O)N[C@H](C(=O)N[C@@H](CCCCN)C(=O)N[C@@H](CC(=O)O)C(=O)N[C@H](C(=O)N[C@@H](Cc1ccc(O)cc1)C(=O)N[C@@H](CC(=O)O)C(=O)N[C@@H](C)C(=O)N[C@@H](CC(C)C)C(=O)N[C@@H](Cc1c[nH]cn1)C(N)=O)[C@@H](C)O)[C@@H](C)O)[C@@H](C)O | PTPN3 | substrate | – | pH 6, TCR zeta-chain ITAM peptide | – | kcat/Km | 81700 M⁻¹ s⁻¹ |
| CC[C@H](C)[C@@H]1NC(=O)[C@H](CCCNC(=N)N)NC(=O)[C@@H](N)CSSC[C@@H]2NC(=O)[C@@H]3CSSC[C@@H](C(=O)N[C@H](C(=O)O)C(C)C)NC(=O)[C@H](CCCCN)NC(=O)[C@H](CC(N)=O)NC(=O)[C@H](Cc4ccccc4)NC(=O)[C@H](CCCNC(=N)N)NC(=O)[C@H](CC(N)=O)NC(=O)[C@H](CSSC[C@H](NC(=O)[C@H](CCCCN)NC(=O)[C@H](CCC(N)=O)NC(=O)[C@H](CC(N)=O)NC(=O)[C@@H]4C[C@@H](O)CN4C1=O)C(=O)N[C@@H](Cc1ccccc1)C(=O)N[C@@H](CCC(N)=O)C(=O)N[C@@H](Cc1c[nH]cn1)C(=O)N[C@@H](CC(C)C)C(=O)N[C@@H](CC(=O)O)C(=O)N[C@@H](CC(=O)O)C(=O)N3)NC(=O)[C@H](CCCCN)NC(=O)[C@H](CCCNC(=N)N)NC(=O)[C@H](CO)NC2=O | Sh (Drosophila melanogaster, UniProt P08510, del6-46) | potassium current, outside-out patch clamp | – | 500 nM, chronic application, zero voltage, internal K 100, with: 1 mM TEA | – | koff | 25 ± 3 s⁻¹ |
| CNC(=O)CC1C(=O)N(C2CCN([C@H]3CC[C@@H](C(C)C)CC3)CC2)c2ccccc21 (some centres unmarked) | OPRL1 | calcium mobilization | CHO with Gαqi5 | – | reference: compound over N/OFQ EC50 | concentration ratio | 1 |
| CC[C@H](C)[C@@H]1NC(=O)[C@H](CCC(=O)O)NC(=O)[C@@H]2CCCN2C(=O)[C@H](Cc2c[nH]cn2)NC(=O)[C@H](CC(=O)O)NC(=O)[C@H](C(C)C)NC(=O)[C@H](CC(N)=O)NC(=O)[C@@H]2CSSC[C@H](NC(=O)[C@H](CCC(N)=O)NC(=O)[C@@H]3CCCN3C(=O)[C@@H](N)CCCNC(=N)N)C(=O)N[C@@H](CSSC[C@@H](C(N)=O)NC1=O)C(=O)N[C@@H](CO)C(=O)N[C@@H](Cc1c[nH]cn1)C(=O)N1CCC[C@H]1C(=O)N[C@@H](C)C(=O)N2 | Neuronal acetylcholine receptor; alpha3/beta4 (Homo sapiens, UniProt P30926+P32297) | ACh-evoked current, antagonist, two-electrode voltage clamp | Xenopus oocytes | 5 min, pH 7.4, holding potential -70 mV | – | maximal inhibition | 77% |
| O=C(C1CCNC1)N1CCc2c(F)cc(F)cc21 (centres unmarked) | ache | enzyme activity, inhibitor, Ellman | – | 21.9 µM, with: acetylthiocholine iodide | – | Vmax | 0.105 absorbance units/min |
| COc1cc(Cc2cnc(N)nc2N)cc(/C=C/C(=O)N2N=Cc3ccccc3[C@@H]2C=C(C)C)c1OC | dfrA (Bacillus anthracis, UniProt Q81R22) | – | – | – | reference: S-enantiomer over R-enantiomer | affinity gain | 100 fold |
| O=C(Nc1cccc(Cl)c1)Nc1nonc1NC(=O)Nc1cccc(Cl)c1 | Replicase polyprotein 1ab, nsp4-nsp5-nsp6 precursor (rep, Severe acute respiratory syndrome coronavirus 2, UniProt P0DTD1) | reporter gene, cell-based primary screen | – | – | – | luciferase signal | 10.8% |
| CC[C@H](C)[C@H](NC(=O)[C@H](CC(C)C)NC(=O)[C@H](Cc1ccc(OP(=O)(O)O)cc1)NC(=O)[C@H](CCC(=O)O)NC(=O)[C@H](CC(=O)O)NC(=O)[C@H](C)NC(=O)[C@H](CC(=O)O)NC(=O)[C@@H](NC(=O)[C@H](CC(C)C)NC(=O)CCCC[C@@H]1SC[C@@H]2NC(=O)N[C@@H]21)C(C)C)C(=O)N1CCC[C@H]1C(=O)N[C@@H](CCC(N)=O)C(=O)N[C@@H](CCC(N)=O)C(=O)NCC(=O)O | Secreted effector protein C403A/D356A | surface plasmon resonance | – | – | – | koff | 0.018 s⁻¹ |
| O=C(O)C(O)=CC(=O)c1ccc(O)c(O)c1 | Replicase polyprotein 1ab, nsp14 with nsp10 (rep, Severe acute respiratory syndrome coronavirus 2, UniProt P0DTD1) | exonuclease activity, inhibitor | – | 20 µM | – | inhibition | 93% |
| CS(=O)(=O)C=CCNC(=O)c1ccc2[nH]c(=O)n(C3CC3)c2c1 | Polyprotein P1234, nsP2 protease (Chikungunya virus, UniProt Q5XXP4) | time-dependent inhibition | – | – | – | kinact/KI | 110 ± 4 M⁻¹ s⁻¹ |
| CC(C)[C@H]1CC[C@@H](N2CCC3(CC2)C(=O)NCN3c2ccccc2)CC1 | OPRL1 | G protein activation, GTPγS binding | CHO membranes | unit not given | reference: basal binding | Emax | 5.11 ± 0.47 |
| CC(=O)N[C@@H](Cc1c[nH]cn1)C(=O)N[C@@H](CC(=O)O)C(=O)NCC(=O)N[C@@H](CC(C)C)C(=O)N[C@@H](Cc1ccc(OP(=O)(O)O)cc1)C(=O)N[C@@H](CCC(N)=O)C(=O)NCC(=O)N[C@@H](CC(C)C)C(=O)N[C@@H](CO)C(=O)N[C@H](C(=O)N[C@@H](C)C(=O)N[C@H](C(=O)N[C@@H](CCCCN)C(=O)N[C@@H](CC(=O)O)C(=O)N[C@H](C(=O)N[C@@H](Cc1cc(=O)oc2cc(OP(=O)(O)O)ccc12)C(=O)N[C@@H](CC(=O)O)C(=O)N[C@@H](C)C(=O)N[C@@H](CC(C)C)C(=O)N[C@@H](Cc1c[nH]cn1)C(N)=O)[C@@H](C)O)[C@@H](C)O)[C@@H](C)O | PTPN3 | substrate | – | pH 6, TCR zeta-chain ITAM peptide | – | kcat/Km | 36000 M⁻¹ s⁻¹ |
| CC[C@H](C)[C@H](NC(=O)[C@H](C)NC(=O)[C@H](CCC(=O)O)NC(=O)[C@H](CCC(=O)O)NC(=O)[C@H](CC(C)C)NC(=O)[C@H](CCCCN)NC(=O)[C@H](CCCCN)NC(=O)[C@H](CCSC)NC(=O)[C@H](CCC(=O)O)NC(=O)[C@H](Cc1ccc(O)cc1)NC(=O)[C@H](CCC(=O)O)NC(=O)[C@H](CC(C)C)NC(=O)[C@H](CC(=O)O)NC(=O)[C@H](CC(C)C)NC(=O)[C@H](Cc1ccccc1)NC(=O)[C@H](Cc1ccc(O)cc1)NC(=O)[C@@H](NC(=O)[C@H](CC(N)=O)NC(=O)[C@@H](NC(=O)[C@H](CCC(N)=O)NC(=O)[C@H](CC(=O)O)NC(=O)[C@H](CC(C)C)NC(=O)[C@@H](N)CO)[C@@H](C)CC)C(C)C)C(=O)N[C@@H](CCCCN)C(=O)N[C@@H](CCCCN)C(=O)N[C@@H](CC(C)C)C(=O)N[C@@H](CCC(=O)O)C(=O)N[C@@H](CCC(=O)O)C(=O)N[C@H](C(=O)N[C@@H](Cc1ccc(O)cc1)C(=O)N[C@H](C(=O)N[C@@H](CC(=O)O)C(=O)N[C@@H](CC(C)C)C(=O)N[C@@H](CCCCN)C(=O)N[C@@H](CCC(=O)O)C(=O)N[C@@H](CC(C)C)C(=O)O)[C@@H](C)CC)[C@@H](C)O | SARS-CoV-2 EG.5.1 pseudovirus | pseudovirus infection, inhibitor, luciferase | Caco-2 | 24 h, dual mutations | – | IC50 | 0.271 µM |
| CN(C)Cc1ccc(OC(=O)N(C)C)c(Cl)c1 | ache | enzyme activity, inhibitor, Ellman | – | 14.0 µM, with: acetylthiocholine iodide | – | Vmax | 0.053 absorbance units/min |
| O=P(O)(O)C(F)(F)c1cccc(-c2ccc(CO/N=C/c3ccoc3)cc2)c1 | Secreted effector protein C403A/D356A | surface plasmon resonance | – | immobilized protein | – | ΔG | -5.08 kcal/mol |
| O=C1Cc2ccccc2N1C1CCN([C@@H]2CC[C@H]3CCCc4cccc2c43)CC1 | OPRL1 | G protein interaction, BRET | HEK293 membranes | – | reference: compound EC50 over N/OFQ EC50 | potency ratio | 90 |
| Cc1ccc(S(=O)(=O)Nc2cccc(C(=O)NC3CCN(c4ncnc5[nH]cnc45)CC3)c2)cc1 | Replicase polyprotein 1ab, nsp14 ExoN with nsp10 (rep, Severe acute respiratory syndrome coronavirus 2, UniProt P0DTD1) | ExoN activity | – | 0.7812 µM | – | inhibition | 11.8% |
| CCOP(=O)(OCC)ON1C(=O)c2cccc3cccc(c23)C1=O | Ache (Rattus norvegicus, UniProt P37136) | inhibitor | rat, postnatal day 1, rat serum | – | – | IC50 | 0.039 µM |
| CC(C)C[C@@H]1NC(=O)[C@H](C(C)C)NC(=O)[C@H](C)NC(=O)[C@@H]2CSSC[C@H](NC(=O)CN)C(=O)N[C@@H](CSSC[C@@H](C(N)=O)NC(=O)[C@H](Cc3ccc(O)cc3)NC1=O)C(=O)N[C@@H](CO)C(=O)N[C@@H]([C@@H](C)O)C(=O)N1CCC[C@H]1C(=O)N1CCC[C@H]1C(=O)N2 | Neuronal acetylcholine receptor; alpha3/beta2 (Rattus norvegicus, UniProt P04757+P12390) | antagonist, membrane potential fluorescence | HEK293 | – | reference: alpha3beta4 over alpha3beta2 IC50 | selectivity ratio | 10 fold |

Excerpt of the above:
| SMILES | target or system | assay | system | conditions | how to read | endpoint | result |
| --- | --- | --- | --- | --- | --- | --- | --- |
| O=C(C1CCNC1)N1CCc2c(F)cc(F)cc21 (centres unmarked) | ache | enzyme activity, inhibitor, Ellman | – | 21.9 µM, with: acetylthiocholine iodide | – | Vmax | 0.105 absorbance units/min |
| COc1cc(Cc2cnc(N)nc2N)cc(/C=C/C(=O)N2N=Cc3ccccc3[C@@H]2C=C(C)C)c1OC | dfrA (Bacillus anthracis, UniProt Q81R22) | – | – | – | reference: S-enantiomer over R-enantiomer | affinity gain | 100 fold |
| O=C(Nc1cccc(Cl)c1)Nc1nonc1NC(=O)Nc1cccc(Cl)c1 | Replicase polyprotein 1ab, nsp4-nsp5-nsp6 precursor (rep, Severe acute respiratory syndrome coronavirus 2, UniProt P0DTD1) | reporter gene, cell-based primary screen | – | – | – | luciferase signal | 10.8% |
